Measurements gathered from unrelated publications.
Each line is one published result; not all experiments were run side by side.
CTSL: Procathepsin L (CTSL, Homo sapiens, UniProt P07711)
Chain of UniProt P07711 (whole entry, looked up): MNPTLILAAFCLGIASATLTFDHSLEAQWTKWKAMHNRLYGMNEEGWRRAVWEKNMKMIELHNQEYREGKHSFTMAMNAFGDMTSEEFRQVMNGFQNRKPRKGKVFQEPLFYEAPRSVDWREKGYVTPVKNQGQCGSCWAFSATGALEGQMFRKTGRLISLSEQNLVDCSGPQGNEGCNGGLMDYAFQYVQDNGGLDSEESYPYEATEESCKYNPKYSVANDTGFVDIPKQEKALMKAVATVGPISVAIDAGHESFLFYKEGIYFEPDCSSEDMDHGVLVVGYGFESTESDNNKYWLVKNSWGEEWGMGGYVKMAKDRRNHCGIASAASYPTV
DRD3: D(3) dopamine receptor (DRD3, Homo sapiens, UniProt P35462)
Chain of UniProt P35462 (whole entry, looked up): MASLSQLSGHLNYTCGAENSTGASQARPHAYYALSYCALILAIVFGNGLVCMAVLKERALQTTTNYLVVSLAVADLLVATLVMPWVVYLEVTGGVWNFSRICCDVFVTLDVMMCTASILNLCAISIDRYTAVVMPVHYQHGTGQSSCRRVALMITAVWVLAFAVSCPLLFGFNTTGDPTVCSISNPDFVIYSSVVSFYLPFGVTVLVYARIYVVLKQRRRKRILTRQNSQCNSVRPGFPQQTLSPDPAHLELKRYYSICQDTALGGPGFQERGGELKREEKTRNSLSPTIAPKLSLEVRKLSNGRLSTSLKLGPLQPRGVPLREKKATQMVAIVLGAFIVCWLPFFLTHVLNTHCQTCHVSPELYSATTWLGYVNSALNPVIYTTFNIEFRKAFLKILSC
Chain of UniProt O15075 (whole entry, looked up): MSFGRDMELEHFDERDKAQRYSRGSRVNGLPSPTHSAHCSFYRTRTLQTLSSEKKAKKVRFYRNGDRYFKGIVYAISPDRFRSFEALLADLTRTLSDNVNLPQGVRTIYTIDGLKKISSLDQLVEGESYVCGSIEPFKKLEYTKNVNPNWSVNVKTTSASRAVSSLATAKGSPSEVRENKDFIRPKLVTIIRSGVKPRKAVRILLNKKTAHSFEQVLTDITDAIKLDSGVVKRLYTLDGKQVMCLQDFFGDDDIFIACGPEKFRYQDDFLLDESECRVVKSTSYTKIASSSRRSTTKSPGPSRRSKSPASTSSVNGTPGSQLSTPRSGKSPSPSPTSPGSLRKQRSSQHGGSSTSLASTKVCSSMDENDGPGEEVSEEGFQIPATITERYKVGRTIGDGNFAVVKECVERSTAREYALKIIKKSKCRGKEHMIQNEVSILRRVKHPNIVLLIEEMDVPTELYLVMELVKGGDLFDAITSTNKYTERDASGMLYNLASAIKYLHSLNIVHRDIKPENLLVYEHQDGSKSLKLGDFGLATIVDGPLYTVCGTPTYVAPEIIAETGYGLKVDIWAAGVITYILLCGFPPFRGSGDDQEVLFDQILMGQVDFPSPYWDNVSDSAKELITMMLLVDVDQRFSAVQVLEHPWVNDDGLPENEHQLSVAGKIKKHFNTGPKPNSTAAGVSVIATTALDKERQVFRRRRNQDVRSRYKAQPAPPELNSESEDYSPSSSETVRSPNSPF
Chain of UniProt P49841 (whole entry, looked up): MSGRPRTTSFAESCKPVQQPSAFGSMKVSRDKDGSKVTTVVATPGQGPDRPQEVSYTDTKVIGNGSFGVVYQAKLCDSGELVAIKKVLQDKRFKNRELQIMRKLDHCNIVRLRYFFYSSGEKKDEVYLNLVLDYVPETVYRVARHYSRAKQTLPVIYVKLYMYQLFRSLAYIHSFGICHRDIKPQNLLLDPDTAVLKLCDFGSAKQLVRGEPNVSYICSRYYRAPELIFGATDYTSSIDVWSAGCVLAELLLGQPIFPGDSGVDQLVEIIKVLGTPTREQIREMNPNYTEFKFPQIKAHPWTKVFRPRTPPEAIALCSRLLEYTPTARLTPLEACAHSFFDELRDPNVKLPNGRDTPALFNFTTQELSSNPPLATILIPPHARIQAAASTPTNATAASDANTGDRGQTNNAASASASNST
Chain of UniProt Q8TF76 (whole entry, looked up): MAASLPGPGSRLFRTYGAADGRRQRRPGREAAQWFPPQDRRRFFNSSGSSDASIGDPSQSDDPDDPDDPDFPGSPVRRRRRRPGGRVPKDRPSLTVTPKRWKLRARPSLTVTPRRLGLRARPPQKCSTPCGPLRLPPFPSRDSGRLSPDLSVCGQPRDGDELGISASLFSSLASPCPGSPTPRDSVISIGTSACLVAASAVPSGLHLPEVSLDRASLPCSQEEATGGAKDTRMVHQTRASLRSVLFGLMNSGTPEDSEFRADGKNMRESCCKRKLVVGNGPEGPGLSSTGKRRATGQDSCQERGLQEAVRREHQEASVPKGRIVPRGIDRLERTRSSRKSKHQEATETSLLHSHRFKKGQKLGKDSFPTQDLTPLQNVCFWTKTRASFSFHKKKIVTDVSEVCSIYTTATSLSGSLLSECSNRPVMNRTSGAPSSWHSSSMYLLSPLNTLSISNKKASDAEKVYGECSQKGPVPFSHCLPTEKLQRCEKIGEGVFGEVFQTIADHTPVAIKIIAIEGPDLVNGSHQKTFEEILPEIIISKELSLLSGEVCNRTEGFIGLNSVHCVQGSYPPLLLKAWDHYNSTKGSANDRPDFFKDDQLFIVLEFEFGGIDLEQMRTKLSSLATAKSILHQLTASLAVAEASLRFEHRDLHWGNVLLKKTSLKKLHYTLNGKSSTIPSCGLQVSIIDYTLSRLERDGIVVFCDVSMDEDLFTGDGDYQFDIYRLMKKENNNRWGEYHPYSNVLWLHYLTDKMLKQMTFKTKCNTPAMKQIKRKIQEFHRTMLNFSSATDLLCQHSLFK
Chain of UniProt Q9BYT3 (whole entry, looked up): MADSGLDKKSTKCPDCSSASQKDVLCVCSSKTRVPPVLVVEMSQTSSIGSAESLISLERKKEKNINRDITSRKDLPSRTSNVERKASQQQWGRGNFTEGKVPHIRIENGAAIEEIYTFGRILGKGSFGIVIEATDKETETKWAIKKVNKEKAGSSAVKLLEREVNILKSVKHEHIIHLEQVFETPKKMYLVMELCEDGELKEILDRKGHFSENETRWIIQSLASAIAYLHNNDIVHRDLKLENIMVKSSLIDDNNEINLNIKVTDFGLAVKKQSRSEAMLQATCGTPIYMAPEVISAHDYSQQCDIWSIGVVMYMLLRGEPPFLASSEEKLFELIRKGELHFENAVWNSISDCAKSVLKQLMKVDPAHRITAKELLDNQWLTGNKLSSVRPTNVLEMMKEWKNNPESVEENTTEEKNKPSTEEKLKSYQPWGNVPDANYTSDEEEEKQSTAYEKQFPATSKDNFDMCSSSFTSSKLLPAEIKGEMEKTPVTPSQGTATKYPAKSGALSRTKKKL
Chain of UniProt Q04912 (whole entry, looked up): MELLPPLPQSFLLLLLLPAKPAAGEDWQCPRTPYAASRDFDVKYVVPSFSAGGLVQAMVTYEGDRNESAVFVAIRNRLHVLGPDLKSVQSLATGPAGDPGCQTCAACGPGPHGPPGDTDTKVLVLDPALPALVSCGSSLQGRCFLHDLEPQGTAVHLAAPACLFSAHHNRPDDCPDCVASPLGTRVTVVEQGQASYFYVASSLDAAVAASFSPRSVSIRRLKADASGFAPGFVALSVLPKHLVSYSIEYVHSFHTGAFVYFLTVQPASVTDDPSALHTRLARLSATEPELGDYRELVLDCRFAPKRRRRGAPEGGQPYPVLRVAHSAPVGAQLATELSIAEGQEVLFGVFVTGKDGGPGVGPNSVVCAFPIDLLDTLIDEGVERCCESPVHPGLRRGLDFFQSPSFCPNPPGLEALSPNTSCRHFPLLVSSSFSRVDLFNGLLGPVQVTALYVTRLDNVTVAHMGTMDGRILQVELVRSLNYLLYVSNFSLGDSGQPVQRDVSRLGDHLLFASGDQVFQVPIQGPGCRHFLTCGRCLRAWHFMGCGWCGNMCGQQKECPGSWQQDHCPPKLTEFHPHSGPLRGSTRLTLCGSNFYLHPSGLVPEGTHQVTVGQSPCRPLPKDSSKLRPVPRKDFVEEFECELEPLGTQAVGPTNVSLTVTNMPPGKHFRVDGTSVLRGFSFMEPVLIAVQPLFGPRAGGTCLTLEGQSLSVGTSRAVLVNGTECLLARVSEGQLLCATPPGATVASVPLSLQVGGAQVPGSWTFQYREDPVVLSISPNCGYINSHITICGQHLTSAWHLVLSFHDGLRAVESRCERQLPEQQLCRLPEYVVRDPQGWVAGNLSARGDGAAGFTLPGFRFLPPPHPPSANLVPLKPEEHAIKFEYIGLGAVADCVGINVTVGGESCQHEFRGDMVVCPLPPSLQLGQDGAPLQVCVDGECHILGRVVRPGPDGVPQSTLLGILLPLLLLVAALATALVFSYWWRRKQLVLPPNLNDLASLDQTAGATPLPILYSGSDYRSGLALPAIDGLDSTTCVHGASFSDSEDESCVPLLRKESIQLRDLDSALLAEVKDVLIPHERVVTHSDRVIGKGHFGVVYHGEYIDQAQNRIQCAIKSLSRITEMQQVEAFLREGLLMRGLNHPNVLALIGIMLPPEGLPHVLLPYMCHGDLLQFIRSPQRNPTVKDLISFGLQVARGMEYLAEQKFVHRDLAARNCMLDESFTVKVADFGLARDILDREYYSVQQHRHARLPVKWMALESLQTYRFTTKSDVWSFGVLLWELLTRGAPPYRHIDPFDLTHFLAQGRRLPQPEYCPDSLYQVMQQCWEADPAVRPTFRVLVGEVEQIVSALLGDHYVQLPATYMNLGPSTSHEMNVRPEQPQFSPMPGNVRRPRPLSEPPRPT
Chain of UniProt Q9Y6M4 (whole entry, looked up): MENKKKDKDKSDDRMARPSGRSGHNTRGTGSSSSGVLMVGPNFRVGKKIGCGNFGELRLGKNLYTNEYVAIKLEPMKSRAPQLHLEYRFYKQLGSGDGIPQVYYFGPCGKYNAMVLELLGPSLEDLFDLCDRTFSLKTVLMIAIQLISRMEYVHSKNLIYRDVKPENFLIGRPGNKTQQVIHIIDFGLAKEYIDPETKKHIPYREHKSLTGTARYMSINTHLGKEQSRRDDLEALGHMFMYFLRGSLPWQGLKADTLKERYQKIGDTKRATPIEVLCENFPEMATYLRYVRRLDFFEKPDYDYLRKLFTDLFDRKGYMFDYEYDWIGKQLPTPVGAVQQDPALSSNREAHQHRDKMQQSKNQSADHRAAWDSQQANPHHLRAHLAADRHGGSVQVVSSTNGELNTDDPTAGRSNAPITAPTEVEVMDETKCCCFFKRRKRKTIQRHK

`Cc1cc(O)c2c(c1)Cc1cc(O)cc(O)c1C2=O` gave a remaining activity of 23.3% (CTSL; enzyme activity, inhibitor; 100 µM).
For `C=CC(=O)N1CCC(COCC(=O)N2CCN(c3nc(-c4cnc(N)nc4C(F)F)nc(N4CCOC[C@@H]4C)n3)CC2)CC1`, the remaining binding was 100% (MAP3K3 (Homo sapiens, UniProt Q99759); binding, competition with immobilised ligand; 1 µM).
`C1CNCCNCCNCCN1` has a remaining activity of 100% (CTSL; enzyme activity, inhibitor; 100 µM).
`CC[C@H](C)[C@H](NC(=O)[C@H](CCC(N)=O)NC(=O)[C@@H](NC(=O)[C@H](CCSC)NC(=O)[C@H](CCCCN)NC(=O)[C@H](CO)NC(=O)[C@@H](NC(=O)[C@H](CCSC)NC(=O)[C@H](CC(C)C)NC(=O)[C@H](CC(N)=O)NC(=O)[C@@H](NC(=O)[C@@H](NC(=O)[C@H](CO)NC(=O)[C@H](CC(C)C)NC(=O)[C@H](C)NC(=O)[C@H](CCCNC(=N)N)NC(=O)[C@H](CCC(=O)O)NC(=O)[C@H](Cc1ccc(O)cc1)NC(=O)[C@H](Cc1ccccc1)NC(=O)[C@H](C)NC(=O)[C@H](CC(N)=O)NC(=O)[C@@H](N)CCCCN)[C@@H](C)CC)[C@@H](C)CC)[C@@H](C)O)C(C)C)C(=O)N[C@@H](CC(N)=O)C(=O)N[C@H](C(=O)O)C(C)C` gave a remaining activity of 140% (GSK3B (Homo sapiens, UniProt P49841); enzyme activity, inhibitor, radiometric; 500 µM, 20 min).
With `CC(=C/C=C/C=C(C)/C=C/C=C(\C)C(=O)OC1OC(COC2OC(CO)C(O)C(O)C2O)C(O)C(O)C1O)/C=C/C=C(/C)C(=O)OC1OC(COC2OC(CO)C(O)C(O)C2O)C(O)C(O)C1O` (stereo not drawn) the remaining activity was 54.1% (CTSL; enzyme activity, inhibitor; 100 µM).
For `C[C@H]1CCN(c2nccc(-c3cnn4ncccc34)n2)C1`, the remaining signal was 69% (CRK2 (Plasmodium falciparum, UniProt P61075); cell-free assay; 1 µM).
`Cc1cc([C@@H](C)Nc2ccccc2C(=O)O)c2nc(N3CCC(F)(F)CC3)c(C#N)c(=O)n2c1` gave a remaining binding of 100% (DCLK1 (Homo sapiens, UniProt O15075); binding, competition with immobilised ligand; 1 µM).
`COc1cccc(-c2cc(C(C)=O)n3ccccc23)c1` gave a ΔTm of 6 °C (BRD9 (Homo sapiens, UniProt Q9H8M2); thermal stability, DSF; 200 µM).
`CNc1ncc2c(/C=C/C(=O)N3CCC(OC)CC3)nn(Cc3cccc(C(F)(F)F)c3)c2n1` gave a remaining activity of 93% (STK33 (Homo sapiens, UniProt Q9BYT3); enzyme activity, inhibitor, radiometric; 1 µM).
`COc1cc(-c2cncc3c2CN(C)Cc2cc(N4CCNCC4)ccc2-3)cc(OC)c1OC` has a remaining activity of 104% (CSNK1G3 (Homo sapiens, UniProt Q9Y6M4); enzyme activity, inhibitor; 1 µM).
The remaining activity of `COc1ccc(C=CC(=O)c2ccc(OC)cc2)cc1` is reported as 101% (CTSL; enzyme activity, inhibitor; 100 µM).
For `Nc1ncnc2occ(-c3ccc(NC(=O)Nc4cc(C(F)(F)F)ccc4F)cc3)c12`, the remaining signal was 0.45% (Tyrosine-protein kinase ABL1, phosphorylated (ABL1, Homo sapiens, UniProt P00519, E255K); cell-free assay, inhibitor; 20 µM).
With `COc1ccc(C(=O)C=Cc2ccccc2)cc1` the remaining activity was 101% (CTSL; enzyme activity, inhibitor; 100 µM).
`CCCCC(=O)Nc1ccc(-c2ccc3ncn(CCC)c(=O)c3c2)cn1` has a remaining binding of 100% (HASPIN (Homo sapiens, UniProt Q8TF76); binding, competition with immobilised ligand; 0.5 µM).
With `Cc1[nH]c(C)c(S(=O)(=O)Nc2cc(Cl)c(Cl)c(Cl)c2)c1C(=O)N1CCC(F)(F)C1` the Emax was 95% (DRD3; β-arrestin recruitment, agonist; 90 min).
With `CC1OC(OC2C(OC3CCC4(C)C(CCC5(C)C4CC=C4C6CC(C)(C)CCC6(C(=O)OC6OC(COC7OC(CO)C(O)C(O)C7O)C(O)C(O)C6O)CCC45C)C3(C)CO)OCC(O)C2O)C(O)C(OC2OC(CO)C(O)C(O)C2O)C1O` (stereo not drawn) the remaining activity was 127% (CTSL; enzyme activity, inhibitor; 100 µM).
For `C1=C/COCc2cc(ccc2OCCN2CCCC2)Nc2nccc(n2)-c2cccc(c2)COC/1`, the remaining binding was 100% (MST1R (Homo sapiens, UniProt Q04912); binding; 0.1 µM).
`Cc1[nH]c(C)c(S(=O)(=O)Nc2ccc(C(F)(F)F)c(Cl)c2)c1C(=O)N1CC[C@H](F)C1` has an Emax of 87% (DRD3; β-arrestin recruitment, agonist; 90 min).

Some of these lines once more:
For `C=CC(=O)N1CCC(COCC(=O)N2CCN(c3nc(-c4cnc(N)nc4C(F)F)nc(N4CCOC[C@@H]4C)n3)CC2)CC1`, the remaining binding was 100% (MAP3K3 (Homo sapiens, UniProt Q99759); binding, competition with immobilised ligand; 1 µM).
